{"data": "Published values collected from several papers", "note": "A part holds a random share of what one study measured. Values joined by “and” are separate records of one study, mostly repeats; a detail may differ."}
{"data": "Block 1", "Structure (SMILES)": "Cc1ncsc1-c1ccc(C(CO)NC(=O)C2CC(O)CN2C(=O)C(C(C)C)n2cc(-c3ccc(COc4c(-c5c(C)c(F)cc6[nH]ncc56)c(C5CC5)cc5c(N6CC7CC6CN7)nc(OC6CCOCC6)nc45)cc3)nn2)cc1 (centres unmarked)", "time": "6 days"}
{"cell line": "PSN1", "test": "cell growth or viability, ATP luminescence", "conditions": "1 µM", "viability": "98.8% and 83.5% and 94.1% and 94.4%"}
{"cell line": "PSN1", "test": "cell growth or viability, ATP luminescence", "conditions": "0.1 µM", "viability": "101% and 98.9% and 81.2% and 95.5%"}
{"cell line": "NCI-H358", "test": "cell growth or viability, ATP luminescence", "conditions": "1 µM", "viability": "5.39% and 4.22% and 4.78% and 3.54%"}
{"cell line": "PK-59", "test": "cell growth or viability, ATP luminescence", "conditions": "1 µM", "viability": "3.46% and 3.41% and 2.11% and 3.47%"}
{"cell line": "AsPC-1", "test": "CellTiter-Glo", "conditions": "3 µM", "scale": "baseline: DMSO", "viability": "4.93% and 5.89% and 4.32%"}
{"cell line": "HPAC", "test": "cell growth or viability, ATP luminescence", "conditions": "3 µM", "viability": "1.3% and 1.32% and 2.71% and 0.976%"}
{"cell line": "A-375", "test": "cell growth or viability, ATP luminescence", "conditions": "0.3 µM", "viability": "90.1% and 86.1% and 93.2% and 84.1%"}
{"cell line": "A-375", "test": "cell growth or viability, ATP luminescence", "conditions": "3 nM", "viability": "87.7% and 85.1% and 99.9% and 83%"}
{"cell line": "SK-CO-1", "test": "cell growth or viability, ATP luminescence", "conditions": "0.1 µM", "viability": "54.6% and 70.3% and 56.8% and 74%"}
{"cell line": "PSN1", "test": "cell growth or viability, ATP luminescence", "conditions": "3 nM", "viability": "92.4% and 124% and 84.6% and 81.4%"}
{"data": "Block 2", "SMILES": "COCC1CC2C(CCC3(C)C(O)CCC23)c2ccc(O)cc21 (centres unmarked)", "technique": "DNA microarray", "baseline": "untreated cells"}
{"cell line": "PANC-1", "test": "refers to: CDCA8", "conditions": "concentration not given", "log2 fold change": -1.63}
{"cell line": "PANC-1", "test": "refers to: CALR3", "conditions": "concentration not given", "log2 fold change": 2.49}
{"cell line": "PANC-1", "test": "refers to: GDF15", "conditions": "concentration not given", "log2 fold change": 2.39}
{"cell line": "SK-OV-3", "test": "refers to: MCM6", "conditions": "concentration not given, lower dose arm", "log2 fold change": -0.127}
{"cell line": "SK-OV-3", "test": "refers to: OLIG2", "conditions": "concentration not given, higher dose arm", "log2 fold change": 3.47}
{"cell line": "A549", "test": "refers to: DNER", "conditions": "concentration not given", "log2 fold change": 5.71}
{"cell line": "PANC-1", "test": "refers to: GADD45A", "conditions": "concentration not given, lower dose arm", "log2 fold change": -0.108}
{"cell line": "PANC-1", "test": "refers to: ACTA2", "conditions": "concentration not given, higher dose arm", "log2 fold change": -0.398}
{"cell line": "PANC-1", "test": "refers to: GAPDH", "conditions": "concentration not given, lower dose arm", "log2 fold change": "0.377 and 0.455 and 0.485 and 0.428 and 0.451"}
{"cell line": "A549", "test": "refers to: MCM7", "conditions": "50 µM", "log2 fold change": -0.387}
{"cell line": "PANC-1", "test": "refers to: MCM4", "conditions": "concentration not given", "log2 fold change": -0.85}
{"cell line": "A549", "test": "refers to: MCM10", "conditions": "concentration not given", "log2 fold change": -0.969}
{"cell line": "A549", "test": "refers to: IL23R", "conditions": "50 µM", "log2 fold change": 3.42}
{"cell line": "A549", "test": "refers to: TMEM108", "conditions": "50 µM", "log2 fold change": 3.83}
{"cell line": "PANC-1", "test": "refers to: MCM7", "conditions": "concentration not given", "log2 fold change": -0.776}
{"cell line": "PANC-1", "test": "refers to: GTSE1", "conditions": "concentration not given, higher dose arm", "log2 fold change": -1.26}
{"cell line": "A549", "test": "refers to: MCM7", "conditions": "concentration not given", "log2 fold change": -0.732}
{"data": "Block 3", "Structure (SMILES)": "CCN1/C(=C/C=C2\\CCCC(/C=C/C3=[N+](CC)c4ccccc4C3(C)C)=C2NCCCCCCCCN2CCC(Nc3nc4ccccc4n3Cc3ccc(F)cc3)CC2)C(C)(C)c2ccccc21", "cell line": "U-87 MG", "tested at": "concentration not given", "baseline": "DMSO"}
{"test": "refers to: FOXM1 mRNA", "log2 fold change": -1.49}
{"test": "refers to: AHNAK2 mRNA", "log2 fold change": -0.869}
{"test": "refers to: GALT mRNA", "log2 fold change": -1.04}
{"test": "refers to: ANXA6 mRNA", "log2 fold change": -1.34}
{"test": "refers to: GALNT15 mRNA", "log2 fold change": -3.48}
{"test": "refers to: RMND5A mRNA", "log2 fold change": 1.58}
{"test": "refers to: KHDRBS3 mRNA", "log2 fold change": 1.13}
{"test": "refers to: BNC2 mRNA", "log2 fold change": -1.6}
{"test": "refers to: JUND mRNA", "log2 fold change": 1.08}
{"test": "refers to: CRACR2B mRNA", "log2 fold change": -1.87}
{"test": "refers to: SSH2 mRNA", "log2 fold change": -0.911}
{"test": "refers to: TMEM251 mRNA", "log2 fold change": 1.19}
{"test": "refers to: LSR", "log2 fold change": -1.88}
{"test": "refers to: ARTN mRNA", "log2 fold change": -2.27}
{"test": "refers to: FLNC mRNA", "log2 fold change": -0.892}
{"test": "refers to: PYCR3 mRNA", "log2 fold change": -1.04}
{"data": "Other studies, line by line"}
{"SMILES": "Cc1nc(C)c(C=[N+]([O-])C(C)(C)C)nc1C", "system": "primary cerebellar granule neurons, rat", "conditions": "30 µM, 2 h, with: MPP+", "scale": "baseline: control", "endpoint": "ATP content", "value": "33.7% and 28.2% and 30.2%"}
{"note": "For quick reference, copied from above (block 1):"}
{"cell line": "PSN1", "test": "cell growth or viability, ATP luminescence", "conditions": "3 nM", "viability": "92.4% and 124% and 84.6% and 81.4%"}
{"cell line": "PK-59", "test": "cell growth or viability, ATP luminescence", "conditions": "1 µM", "viability": "3.46% and 3.41% and 2.11% and 3.47%"}
{"cell line": "A-375", "test": "cell growth or viability, ATP luminescence", "conditions": "3 nM", "viability": "87.7% and 85.1% and 99.9% and 83%"}
{"cell line": "A-375", "test": "cell growth or viability, ATP luminescence", "conditions": "0.3 µM", "viability": "90.1% and 86.1% and 93.2% and 84.1%"}
{"cell line": "HPAC", "test": "cell growth or viability, ATP luminescence", "conditions": "3 µM", "viability": "1.3% and 1.32% and 2.71% and 0.976%"}
{"cell line": "PSN1", "test": "cell growth or viability, ATP luminescence", "conditions": "1 µM", "viability": "98.8% and 83.5% and 94.1% and 94.4%"}
